{"data": "Results pooled from the literature", "note": "A part holds a random share of what one study measured.", "chain of UniProt Q9HC98 (whole entry, looked up)": "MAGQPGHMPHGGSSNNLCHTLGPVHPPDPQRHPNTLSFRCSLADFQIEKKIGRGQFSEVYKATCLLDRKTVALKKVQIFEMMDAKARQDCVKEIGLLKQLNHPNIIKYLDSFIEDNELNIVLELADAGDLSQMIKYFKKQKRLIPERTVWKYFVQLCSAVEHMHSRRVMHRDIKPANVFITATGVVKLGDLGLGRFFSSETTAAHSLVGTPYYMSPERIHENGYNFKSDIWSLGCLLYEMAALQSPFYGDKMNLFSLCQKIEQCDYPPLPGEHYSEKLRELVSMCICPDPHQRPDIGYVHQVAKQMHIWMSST", "chain of UniProt P29376 (whole entry, looked up)": "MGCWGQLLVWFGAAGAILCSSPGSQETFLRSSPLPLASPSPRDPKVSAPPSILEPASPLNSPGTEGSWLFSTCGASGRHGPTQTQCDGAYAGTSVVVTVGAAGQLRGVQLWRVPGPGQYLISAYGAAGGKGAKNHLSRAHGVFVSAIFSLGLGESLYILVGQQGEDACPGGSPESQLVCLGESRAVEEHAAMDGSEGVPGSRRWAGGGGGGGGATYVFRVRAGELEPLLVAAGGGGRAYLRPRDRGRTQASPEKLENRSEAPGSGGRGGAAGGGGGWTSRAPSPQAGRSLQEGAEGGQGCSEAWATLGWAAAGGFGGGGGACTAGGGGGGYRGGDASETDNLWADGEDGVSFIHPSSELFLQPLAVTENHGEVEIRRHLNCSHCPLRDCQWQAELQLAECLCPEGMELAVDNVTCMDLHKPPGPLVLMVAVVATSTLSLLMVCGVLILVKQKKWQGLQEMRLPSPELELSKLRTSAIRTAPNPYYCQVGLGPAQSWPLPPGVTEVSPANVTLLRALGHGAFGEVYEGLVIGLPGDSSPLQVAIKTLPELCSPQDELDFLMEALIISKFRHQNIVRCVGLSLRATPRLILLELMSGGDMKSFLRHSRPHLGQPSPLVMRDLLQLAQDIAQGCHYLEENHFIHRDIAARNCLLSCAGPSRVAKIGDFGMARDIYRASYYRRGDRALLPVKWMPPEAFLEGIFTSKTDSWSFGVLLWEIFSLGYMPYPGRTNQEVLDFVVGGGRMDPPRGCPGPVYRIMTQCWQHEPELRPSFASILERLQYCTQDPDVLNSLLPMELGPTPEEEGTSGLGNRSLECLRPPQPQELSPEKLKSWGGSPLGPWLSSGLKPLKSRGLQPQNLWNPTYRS", "chain of UniProt P06239 (whole entry, looked up)": "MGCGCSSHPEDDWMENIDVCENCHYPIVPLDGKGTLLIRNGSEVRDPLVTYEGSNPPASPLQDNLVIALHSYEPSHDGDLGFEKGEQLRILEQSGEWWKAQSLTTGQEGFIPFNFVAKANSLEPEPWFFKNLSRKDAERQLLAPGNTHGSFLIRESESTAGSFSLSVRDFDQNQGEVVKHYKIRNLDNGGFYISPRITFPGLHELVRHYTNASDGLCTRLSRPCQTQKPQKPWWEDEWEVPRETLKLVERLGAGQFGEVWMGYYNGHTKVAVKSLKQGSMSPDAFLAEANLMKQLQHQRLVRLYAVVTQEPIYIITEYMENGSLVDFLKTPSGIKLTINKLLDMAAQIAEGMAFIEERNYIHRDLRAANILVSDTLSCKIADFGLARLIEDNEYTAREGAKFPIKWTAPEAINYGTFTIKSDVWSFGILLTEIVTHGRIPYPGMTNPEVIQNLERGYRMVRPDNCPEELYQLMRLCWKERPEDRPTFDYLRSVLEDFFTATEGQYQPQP", "chain of UniProt Q15303 (whole entry, looked up)": "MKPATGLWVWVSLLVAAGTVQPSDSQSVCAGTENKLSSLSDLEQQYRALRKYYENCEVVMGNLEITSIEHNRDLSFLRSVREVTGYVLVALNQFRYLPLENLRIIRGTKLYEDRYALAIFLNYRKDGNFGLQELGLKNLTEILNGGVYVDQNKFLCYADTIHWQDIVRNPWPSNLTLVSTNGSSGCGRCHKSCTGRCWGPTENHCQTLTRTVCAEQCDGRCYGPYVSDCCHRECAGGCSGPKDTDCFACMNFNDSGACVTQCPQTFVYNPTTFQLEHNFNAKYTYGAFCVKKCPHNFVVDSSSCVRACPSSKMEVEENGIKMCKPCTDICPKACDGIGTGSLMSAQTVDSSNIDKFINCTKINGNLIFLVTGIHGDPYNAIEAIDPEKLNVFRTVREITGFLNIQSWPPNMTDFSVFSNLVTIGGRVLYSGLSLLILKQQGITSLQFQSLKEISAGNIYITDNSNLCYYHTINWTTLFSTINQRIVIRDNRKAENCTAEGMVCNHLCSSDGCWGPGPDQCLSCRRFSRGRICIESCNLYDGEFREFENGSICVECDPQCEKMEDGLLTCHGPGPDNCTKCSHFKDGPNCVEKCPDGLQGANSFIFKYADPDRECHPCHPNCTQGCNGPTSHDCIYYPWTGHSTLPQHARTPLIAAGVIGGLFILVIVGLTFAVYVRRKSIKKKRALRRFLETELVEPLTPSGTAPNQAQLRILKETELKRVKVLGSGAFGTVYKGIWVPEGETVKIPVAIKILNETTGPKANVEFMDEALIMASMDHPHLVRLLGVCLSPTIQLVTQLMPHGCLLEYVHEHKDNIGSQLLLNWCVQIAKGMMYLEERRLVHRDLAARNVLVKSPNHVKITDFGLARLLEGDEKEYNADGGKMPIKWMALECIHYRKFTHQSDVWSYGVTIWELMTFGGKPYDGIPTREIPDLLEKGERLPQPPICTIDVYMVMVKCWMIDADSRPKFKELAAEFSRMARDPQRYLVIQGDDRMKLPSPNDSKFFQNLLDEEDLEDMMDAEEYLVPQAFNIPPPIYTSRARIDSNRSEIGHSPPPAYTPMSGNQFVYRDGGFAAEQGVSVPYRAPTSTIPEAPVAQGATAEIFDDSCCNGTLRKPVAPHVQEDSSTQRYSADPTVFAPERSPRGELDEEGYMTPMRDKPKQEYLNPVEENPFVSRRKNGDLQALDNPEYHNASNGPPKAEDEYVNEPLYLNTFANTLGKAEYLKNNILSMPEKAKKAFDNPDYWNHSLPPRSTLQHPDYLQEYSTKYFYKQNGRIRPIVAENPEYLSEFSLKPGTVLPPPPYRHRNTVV", "chain of UniProt P17948 (whole entry, looked up)": "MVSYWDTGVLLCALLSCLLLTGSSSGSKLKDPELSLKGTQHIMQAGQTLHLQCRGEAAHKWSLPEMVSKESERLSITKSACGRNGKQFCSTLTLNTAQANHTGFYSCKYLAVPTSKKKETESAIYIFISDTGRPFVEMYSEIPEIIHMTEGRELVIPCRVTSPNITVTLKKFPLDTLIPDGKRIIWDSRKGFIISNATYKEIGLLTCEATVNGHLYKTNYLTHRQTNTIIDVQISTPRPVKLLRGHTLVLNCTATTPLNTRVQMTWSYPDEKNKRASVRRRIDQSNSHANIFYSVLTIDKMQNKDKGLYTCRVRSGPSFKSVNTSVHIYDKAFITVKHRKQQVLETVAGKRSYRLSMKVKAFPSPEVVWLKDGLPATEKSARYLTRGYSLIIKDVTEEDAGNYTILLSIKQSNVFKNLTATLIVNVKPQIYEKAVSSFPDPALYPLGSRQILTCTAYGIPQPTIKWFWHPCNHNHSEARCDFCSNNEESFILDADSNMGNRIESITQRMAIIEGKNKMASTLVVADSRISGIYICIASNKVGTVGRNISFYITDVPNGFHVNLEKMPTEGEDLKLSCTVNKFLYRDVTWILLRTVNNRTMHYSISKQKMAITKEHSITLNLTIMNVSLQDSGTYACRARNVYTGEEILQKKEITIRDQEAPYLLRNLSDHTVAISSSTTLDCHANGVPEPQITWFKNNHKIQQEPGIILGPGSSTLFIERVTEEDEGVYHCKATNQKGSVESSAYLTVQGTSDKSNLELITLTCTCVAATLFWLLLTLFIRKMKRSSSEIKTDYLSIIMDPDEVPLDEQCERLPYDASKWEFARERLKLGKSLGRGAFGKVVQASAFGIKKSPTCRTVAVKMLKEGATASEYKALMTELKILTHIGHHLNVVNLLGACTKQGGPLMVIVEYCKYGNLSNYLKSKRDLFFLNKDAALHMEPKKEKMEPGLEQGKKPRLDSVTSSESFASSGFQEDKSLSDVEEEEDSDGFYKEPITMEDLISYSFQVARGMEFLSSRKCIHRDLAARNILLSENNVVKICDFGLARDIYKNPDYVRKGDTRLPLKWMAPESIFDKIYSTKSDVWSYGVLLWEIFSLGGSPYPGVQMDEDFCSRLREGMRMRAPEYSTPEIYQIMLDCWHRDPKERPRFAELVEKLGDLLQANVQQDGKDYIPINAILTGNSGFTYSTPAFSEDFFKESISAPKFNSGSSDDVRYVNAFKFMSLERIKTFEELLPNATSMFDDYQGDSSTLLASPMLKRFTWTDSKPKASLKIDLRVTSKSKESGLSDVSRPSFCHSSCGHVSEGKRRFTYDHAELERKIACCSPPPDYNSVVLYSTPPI", "chain of UniProt P42685 (whole entry, looked up)": "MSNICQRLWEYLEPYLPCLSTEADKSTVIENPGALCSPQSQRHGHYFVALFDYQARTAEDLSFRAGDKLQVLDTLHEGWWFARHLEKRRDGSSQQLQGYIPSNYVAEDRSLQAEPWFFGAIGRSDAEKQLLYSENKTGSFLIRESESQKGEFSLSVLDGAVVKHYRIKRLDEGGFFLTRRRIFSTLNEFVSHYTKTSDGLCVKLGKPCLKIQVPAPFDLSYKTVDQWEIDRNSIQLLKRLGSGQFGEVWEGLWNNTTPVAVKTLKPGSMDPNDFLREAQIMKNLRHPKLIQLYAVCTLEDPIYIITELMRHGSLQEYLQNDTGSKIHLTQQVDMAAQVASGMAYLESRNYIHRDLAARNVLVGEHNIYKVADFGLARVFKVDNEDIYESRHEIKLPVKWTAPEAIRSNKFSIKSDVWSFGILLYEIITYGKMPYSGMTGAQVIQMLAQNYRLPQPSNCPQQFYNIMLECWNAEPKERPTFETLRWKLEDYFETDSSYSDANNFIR"}
{"data": "Study 1", "Structure (SMILES)": "CNC(=O)Nc1ccc2c(c1)[C@@]1(CC2)OC(=O)N(CC(=O)N(Cc2ccc(F)cc2)[C@@H](C)C(F)(F)F)C1=O", "read-out": "cell-free assay", "technique": "competition with immobilised ligand", "tested at": "1 µM"}
{"target": "ERBB4 (Homo sapiens, UniProt Q15303)", "remaining binding": "100%"}
{"target": "LTK (Homo sapiens, UniProt P29376)", "remaining binding": "100%"}
{"target": "FLT1 (Homo sapiens, UniProt P17948)", "remaining binding": "100%"}
{"target": "CLK2 (Homo sapiens, UniProt P49760)", "remaining binding": "100%"}
{"target": "WEE2 (Homo sapiens, UniProt P0C1S8)", "remaining binding": "100%"}
{"target": "FER (Homo sapiens, UniProt P16591)", "remaining binding": "79%"}
{"target": "IKBKE (Homo sapiens, UniProt Q14164)", "remaining binding": "75%"}
{"target": "FLT3 (Homo sapiens, UniProt P36888)", "remaining binding": "96%"}
{"target": "NEK6 (Homo sapiens, UniProt Q9HC98)", "remaining binding": "100%"}
{"target": "FLT3 (Homo sapiens, UniProt P36888, K663Q)", "remaining binding": "84%"}
{"target": "NEK7 (Homo sapiens, UniProt Q8TDX7)", "remaining binding": "100%"}
{"target": "FLT3 (Homo sapiens, UniProt P36888, ITD)", "remaining binding": "87%"}
{"target": "PRKG2 (Homo sapiens, UniProt Q13237)", "remaining binding": "85%"}
{"target": "MAP2K6 (Homo sapiens, UniProt P52564)", "remaining binding": "100%"}
{"target": "WNK4 (Homo sapiens, UniProt Q96J92)", "remaining binding": "100%"}
{"data": "Study 2", "Structure (SMILES)": "N#Cc1cnc2cnc(NCc3cccnc3)cc2c1Nc1ccc(F)c(Cl)c1", "read-out": "enzyme activity", "mode": "inhibitor", "tested at": "0.5 µM", "reference": "control"}
{"target": "WEE1 (Homo sapiens, UniProt P30291)", "remaining activity [%]": 74.3}
{"target": "MAP3K5 (Homo sapiens, UniProt Q99683)", "remaining activity [%]": 106}
{"target": "MAP2K2 (Homo sapiens, UniProt P36507)", "remaining activity [%]": 105}
{"target": "NEK6 (Homo sapiens, UniProt Q9HC98)", "remaining activity [%]": 104}
{"target": "TEK (Homo sapiens, UniProt Q02763)", "remaining activity [%]": 95.5}
{"target": "MAPK3 (Homo sapiens, UniProt P27361)", "remaining activity [%]": 100}
{"target": "FRK (Homo sapiens, UniProt P42685)", "remaining activity [%]": 101}
{"target": "TBK1 (Homo sapiens, UniProt Q9UHD2)", "remaining activity [%]": 83.4}
{"target": "CSNK1G2 (Homo sapiens, UniProt P78368)", "remaining activity [%]": 102}
{"target": "JAK3 (Homo sapiens, UniProt P52333)", "remaining activity [%]": 86.2}
{"target": "MAPKAPK2 (Homo sapiens, UniProt P49137)", "remaining activity [%]": 100}
{"target": "LCK (Homo sapiens, UniProt P06239)", "remaining activity [%]": 97.3}
{"target": "RPS6KA2 (Homo sapiens, UniProt Q15349)", "remaining activity [%]": 87.3}
{"target": "FGFR3 (Homo sapiens, UniProt P22607)", "remaining activity [%]": 91.7}
{"data": "Study 3", "target": "RNA binding protein fox-1 homolog 2, RRM domain, GST-SBP tag (RBFOX2, Homo sapiens, UniProt O43251-10, residues 100-194)", "technique": "RNA Bind-n-Seq", "molecule type": "RNA", "matrix": "in vitro", "tested at": "365 nM", "notes": "natural RNA segment, single round, ends assumed", "reference": "no-protein control", "reading": "higher = stronger binding", "all sequences stand within": "GGGAGUUCUACAGUCCGACGAUC … UGGAAUUCUCGGGUGCCAA", "Construct (chain)": "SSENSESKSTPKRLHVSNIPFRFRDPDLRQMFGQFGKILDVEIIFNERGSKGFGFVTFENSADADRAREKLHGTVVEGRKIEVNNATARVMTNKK"}
{"Strand": "CAUAAGCCCGUGGUUUGUGUACUGGAACUAAAGCGGAACUCACUGAUUCAUAUUGGAUCCCCAGGUAUACCUUCUGCUGGUAGCAUAUGGCUGGAAAAGGCCGUUUGCCU", "RBNS enrichment (R)": 0.308}
{"Strand": "UCACACUGCUUCUUAUCCUGAACACUUGACACCUUGAGGGUAGAAUAUAGCAUUUGGUUUUUACCUCCUAGCAUAUGCUACUUGGUAUGUGAGGGUUUCAGUACAAAUGC", "RBNS enrichment (R)": 0.604}
{"Strand": "AUCUAUAAAAUUUAGAACUCUAAUCCAUAAAGUUAGAAUUGAGCUAAUAGAGUGGUAUGACAUGGCACUAAAAAUAUAAAUUUUUGUUGUAAGUCAGGAUUGGAGUAAGC", "RBNS enrichment (R)": 0.76}
{"Strand": "AAGAAGAAAGACUCCCUUCACUUUGCCCUUAACACUUGCCUCUGUUAUCUAAGCUUCGUUAAUAGAUUUCUUAAUAUCAUCCAAUGUUUGGUGUUAUCUGCAUUGUUUUU", "RBNS enrichment (R)": 0.323}
{"Strand": "AUCAGUCUCUGGGAUGGAGGCCAGAGAGCUGGUCAGGCUCCCCCAUCUGCCCAGCACGGCCUGCACUGUGCCCACCCACUUGCUCCACAACGUCCAGUUGGUCCUGCUGC", "RBNS enrichment (R)": 0.655}
{"Strand": "GAAUGUUUUUGGAAAGGUGUUUUUUGGUAUGCAAGUCAGCUUUGCCUCACAGUUGAAAAUGUUCGGUCAUGAUUGCUUUUGAAACCAAAGGGGAAGGUACCGAUAUCAUU", "RBNS enrichment (R)": 1.06}
{"Strand": "AUAUGAGCCUAGGGUUUCCCCAACACGUGCGUGCAUAUGAAACCACAUCAUGAUUCCCGACGUGAGUUAGAUGAGGGAGAGUUUGUGUAACUCCACACCCAGGAGGGUAA", "RBNS enrichment (R)": 0.231}
{"Strand": "AGUAACAGACUUAGGUACUGCUAAGCAGUUAUUAACACAAUAUUCCUUAGUUUUCAUAUGUUGGUUAUUCAUAUGUCUAUUUAUAUGUAUAUUUAUUUUUAUGUAUGUUA", "RBNS enrichment (R)": 0.608}
{"data": "Study 4", "target": "Interferon regulatory factor 5, full length, phosphomimetic (IRF5, Homo sapiens, UniProt Q13568-2, residues 1-514, K96S/S451D/S453D/S456D/S462D)", "technique": "protein-binding microarray", "molecule type": "double-stranded DNA, one strand shown", "matrix": "in vitro", "tested at": "250 nM", "notes": "60-bp whole probe", "added": "salmon DNA 0.4 mg/ml", "reference": "random background probes", "reading": "higher = stronger binding", "all sequences stand within": "GCCTAGCAC … GTCTTGATTCGCTTGACGCTGCTG"}
{"Strand": "TTAGAACTGGGGTTTGGATTAGTGCTA", "log fluorescence": "-0.0448 z-score"}
{"Strand": "GACGGTTTCGGTATCGCGACGTGCTAG", "log fluorescence": "9.37 z-score"}
{"Strand": "TCAGATCTCCGAGATGCCACTGTGCTA", "log fluorescence": "-0.301 z-score"}
{"Strand": "GCAGGGCAGGCAGGCTGAGGGTGCTAG", "log fluorescence": "-1.38 z-score"}
{"Strand": "TCAATGGTCCTGGTTTCAACTGTGCTA", "log fluorescence": "0.644 z-score"}
{"Strand": "GACGGACTGGACTATGGGGACGTGCTA", "log fluorescence": "-0.534 z-score"}
{"Strand": "CGACATCTGCAAGATCCACAAGTGCTA", "log fluorescence": "0.148 z-score"}
{"Strand": "TTAGATTTCAGTAGCGATTAGTGCTAG", "log fluorescence": "1.82 z-score"}
{"note": "For quick reference, copied from above (study 1):"}
{"target": "FLT3 (Homo sapiens, UniProt P36888)", "remaining binding": "96%"}
{"target": "CLK2 (Homo sapiens, UniProt P49760)", "remaining binding": "100%"}
{"target": "WNK4 (Homo sapiens, UniProt Q96J92)", "remaining binding": "100%"}
{"target": "FLT1 (Homo sapiens, UniProt P17948)", "remaining binding": "100%"}
{"target": "WEE2 (Homo sapiens, UniProt P0C1S8)", "remaining binding": "100%"}
